{"data": "Measured values collected from several papers", "note": "Lines come from different studies, so protocols differ. “And” joins repeats or separate records; there may be more than shown. ± marks the error that the study gave."}
{"SMILES": "CC[C@H](C)[C@H](NC(C)=O)C(=O)N[C@@H](CO)C(=O)NCC(=O)N[C@H](C(=O)N[C@@H](CC(N)=O)C(=O)N[C@@H](C)C(=O)N[C@@H](CO)C(=O)N[C@H](C(=O)N[C@H](C(=O)N[C@@H](CC(N)=O)C(=O)N[C@H](C(=O)N[C@@H](CCC(N)=O)C(=O)N[C@@H](CCC(=O)O)C(=O)N[C@@H](CCC(=O)O)C(=O)N[C@H](C(=O)N[C@@H](CCCCN)C(=O)N[C@@H](CCCNC(=N)N)C(=O)N[C@@H](CC(C)C)C(=O)N[C@@H](CC(N)=O)C(=O)N[C@@H](CCC(=O)O)C(=O)N[C@H](C(=O)N[C@@H](C)C(=O)N[C@@H](CCCCN)C(=O)N[C@@H](CCCCN)C(=O)N[C@@H](CC(C)C)C(=O)N[C@@H](CC(N)=O)C(=O)N[C@@H](CCC(=O)O)C(=O)N[C@@H](CO)C(=O)N[C@@H](CC(C)C)C(=O)N[C@H](C(=O)N[C@@H](CC(=O)O)C(=O)N[C@@H](CC(C)C)C(=O)N[C@@H](CCC(N)=O)C(=O)N[C@@H](CCC(=O)O)C(=O)NCC(=O)NCC(=O)NCC(=O)N[C@@H](CO)C(=O)NCC(=O)NCC(=O)NCC(=O)N[C@@H](CSSC[C@H](NC(=O)CNC(=O)CNC(=O)CNC(=O)[C@H](CO)NC(=O)CNC(=O)CNC(=O)CNC(=O)[C@H](CCC(=O)O)NC(=O)[C@H](CCC(N)=O)NC(=O)[C@H](CC(C)C)NC(=O)[C@H](CC(=O)O)NC(=O)[C@@H](NC(=O)[C@H](CC(C)C)NC(=O)[C@H](CO)NC(=O)[C@H](CCC(=O)O)NC(=O)[C@H](CC(N)=O)NC(=O)[C@H](CC(C)C)NC(=O)[C@H](CCCCN)NC(=O)[C@H](CCCCN)NC(=O)[C@H](C)NC(=O)[C@@H](NC(=O)[C@H](CCC(=O)O)NC(=O)[C@H](CC(N)=O)NC(=O)[C@H](CC(C)C)NC(=O)[C@H](CCCNC(=N)N)NC(=O)[C@H](CCCCN)NC(=O)[C@@H](NC(=O)[C@H](CCC(=O)O)NC(=O)[C@H](CCC(=O)O)NC(=O)[C@H](CCC(N)=O)NC(=O)[C@@H](NC(=O)[C@H](CC(N)=O)NC(=O)[C@@H](NC(=O)[C@@H](NC(=O)[C@H](CO)NC(=O)[C@H](C)NC(=O)[C@H](CC(N)=O)NC(=O)[C@@H](NC(=O)CNC(=O)[C@H](CO)NC(=O)[C@@H](NC(C)=O)[C@@H](C)CC)[C@@H](C)CC)C(C)C)C(C)C)[C@@H](C)CC)[C@@H](C)CC)C(C)C)[C@@H](C)CC)C(N)=O)C(N)=O)[C@@H](C)CC)C(C)C)[C@@H](C)CC)[C@@H](C)CC)C(C)C)C(C)C)[C@@H](C)CC", "organism": "SARS-CoV-2 Wuhan", "test": "viral replication", "system": "VeroE6/TMPRSS2 cells", "how to read": "baseline: corresponding monomer", "quantity": "fold change IC50 vs corresponding monomer", "result": 1.24}
{"SMILES": "COC(=O)c1ncn(C2CC(O)C(CO)O2)c1C(=O)OC (centres unmarked)", "organism": "Severe acute respiratory syndrome coronavirus", "test": "viral replication", "system": "Vero", "conditions": "48 h", "quantity": "IC50", "result": "18 µg/mL"}
{"SMILES": "CN[C@@H]1[C@H](O)[C@H](NC)[C@H]2O[C@]3(O)[C@H](O[C@@H]2[C@H]1O)O[C@H](C)C[C@H]3NC(=O)Cc1ccc(F)cn1", "organism": "Bacillus anthracis", "test": "microbial growth", "system": "STERNE34F2", "quantity": "MIC", "result": "25 µg/mL"}
{"SMILES": "O=[N+]([O-])c1ccc(-n2nc(-c3ccccc3)cc2-c2ccc(F)cc2)c([N+](=O)[O-])c1", "organism": "Japanese encephalitis virus", "test": "plaque", "system": "Neuro2a, SA14-14-2", "conditions": "15 µM, 72 h, co-treatment", "quantity": "viral particle reduction", "result": "~55%"}
{"SMILES": "O=S(=O)(O)c1c2ccccc2c(-c2c3nc(c(-c4c5ccccc5c(S(=O)(=O)O)c5ccccc45)c4ccc([nH]4)c(-c4c5ccccc5c(S(=O)(=O)O)c5ccccc45)c4nc(c(-c5c6ccccc6c(S(=O)(=O)O)c6ccccc56)c5ccc2[nH]5)C=C4)C=C3)c2ccccc12", "organism": "vaccinia virus", "test": "viral replication", "system": "WR", "conditions": "25 µg/mL, 16 h", "quantity": "inhibition", "result": "39 ± 13%"}
{"SMILES": "O=C(C=Cc1ccc(O)c(O)c1)OC1CC(O)(C(=O)O)CC(OC(=O)C=Cc2ccc(O)c(O)c2)C1O (centres unmarked)", "organism": "Severe acute respiratory syndrome coronavirus 2", "test": "cytopathic effect", "system": "Vero C1008", "conditions": "6.25 µM", "quantity": "inhibition", "result": "0%"}
{"SMILES": "Cl.O=C(O)CCCC1C2CCCN3CCCC(CN1Cc1ccc(Cl)c(Cl)c1)C23 (centres unmarked)", "organism": "Ebola virus", "conditions": "EBOV GP pseudotyped HIV", "how to read": "baseline: CC50 over IC50", "quantity": "selectivity index", "result": "> 2.54"}
{"SMILES": "[O-][N+]1=C(c2ccc(Cl)cc2)C2=NCCCCN2c2ccccc21", "organism": "Clostridium perfringens", "quantity": "MIC", "result": "4 to 64 µg/mL"}
{"SMILES": "CC(C)CC(C(=O)N1CC2(CC1C#N)C(=O)Nc1ccccc12)N(C)C(=O)c1cc2c(F)cc(F)c(F)c2[nH]1 (centres unmarked)", "organism": "SARS-CoV-2", "test": "viral replication", "system": "Vero E6", "conditions": "0.0005 µM", "quantity": "inhibition", "result": "0.61% and 0% and 1.32%"}
{"SMILES": "O=[N+]([O-])c1ccc(-n2nc(-c3ccc(F)cc3)cc2-c2ccc(F)cc2)c([N+](=O)[O-])c1", "organism": "Japanese encephalitis virus", "system": "Neuro2a, SA14-14-2", "conditions": "15 µM, 96 h", "quantity": "virus titre", "result": "4.25 log10 TCID50"}
{"SMILES": "Cc1ccc(NS(=O)(=O)c2c(C(=O)N3CCCCCC3)c(C)n(C)c2C)c(Cl)c1", "organism": "Monkeypox virus", "system": "Vero C1008, wild type", "conditions": "0.37 µM, 72 h", "how to read": "baseline: untreated", "quantity": "relative infection", "result": "0% and 1%"}
{"SMILES": "CC[C@H](C)[C@H](NC(=O)[C@H](CCCCN)NC(=O)[C@H](CCCCN)NC(=O)[C@H](CC(C)C)NC(=O)[C@H](Cc1c[nH]c2ccccc12)NC(=O)CN)C(=O)NCC(=O)N[C@@H](CCCCN)C(=O)N[C@@H](CCCCN)C(=O)N[C@H](C(=O)N[C@@H](CCC(=O)O)C(=O)N[C@@H](CCCNC(=N)N)C(=O)N[C@H](C(=O)NCC(=O)N[C@@H](CCC(N)=O)C(=O)N[C@@H](Cc1c[nH]cn1)C(=O)N[C@H](C(=O)N[C@@H](CCCNC(=N)N)C(=O)N[C@@H](CC(=O)O)C(=O)N[C@@H](C)C(=O)N[C@H](C(=O)N[C@H](C(=O)N[C@@H](CCC(N)=O)C(=O)N[C@H](C(=O)N[C@H](C(=O)NCC(=O)N[C@H](C(=O)N[C@@H](C)C(=O)N[C@@H](CCC(N)=O)C(=O)N[C@@H](CCC(N)=O)C(=O)N[C@@H](C)C(=O)N[C@@H](C)C(=O)N[C@@H](CC(N)=O)C(=O)N[C@H](C(=O)N[C@@H](C)C(=O)N[C@@H](C)C(=O)N[C@H](C(=O)N[C@@H](CC(C)C)C(=O)N[C@@H](CCCCN)C(N)=O)[C@@H](C)O)C(C)C)C(C)C)[C@@H](C)CC)[C@@H](C)O)[C@@H](C)CC)[C@@H](C)O)[C@@H](C)O)C(C)C)[C@@H](C)CC", "organism": "Candida albicans", "test": "broth microdilution", "system": "FH2173, CAMHB", "quantity": "MIC", "result": "> 1020 µg/mL"}
{"SMILES": "CCCCCCCCCCCCCCCCCCCCCCSCC1OC(OC2C(N)CC(N)C(OC3OC(CN)C(O)CC3N)C2O)C(O)C(N)C1O (centres unmarked)", "organism": "Bacillus anthracis", "system": "Sterne 34F2", "quantity": "MIC", "result": "18.8 µg/mL"}
{"SMILES": "NC(=O)c1ncn(C2OC(CO)C(O)C2O)c1C(N)=O (centres unmarked)", "organism": "Zaire ebolavirus", "test": "viral replication, inhibitor", "system": "Vero", "conditions": "72 h", "quantity": "IC50", "result": "28 µg/mL"}
{"SMILES": "[O-][N+]1=C(c2ccccc2)C2=NCCCN2c2ncccc21", "organism": "Clostridium butyricum", "quantity": "MIC", "result": "≤ 0.06 µg/mL"}
{"SMILES": "CN[C@@H]1[C@H](O)[C@H](NC)[C@H]2O[C@]3(O)[C@H](O[C@@H]2[C@H]1O)O[C@H](C)C[C@@]3(O)CNCc1ccccc1", "organism": "Legionella pneumophila", "system": "ATCC 33153", "conditions": "40 µg per disc, 48 h", "quantity": "inhibition zone diameter", "result": "40 mm"}
{"SMILES": "COc1ccc(C2=[N+]([O-])c3ccccc3N3CCN=C23)cc1", "organism": "Clostridium butyricum", "quantity": "MIC", "result": "≤ 0.06 µg/mL"}
{"SMILES": "NNC(=O)c1ncn(C2OC(CO)C(O)C2O)c1C(=O)NN (centres unmarked)", "organism": "Mammarenavirus lassaense", "test": "viral replication, inhibitor", "system": "Vero", "conditions": "48 h", "quantity": "IC50", "result": "35 µg/mL"}
{"SMILES": "COc1ccc(C2=[N+]([O-])c3ccccc3N3CC(C)(C)CN=C23)cc1", "organism": "Clostridium perfringens", "quantity": "MIC", "result": "1 to 16 µg/mL"}
{"SMILES": "N#Cc1ccc2cccc(O)c2n1", "organism": "Shigella dysenteriae", "test": "microbial growth, agar dilution", "quantity": "MIC", "result": "1500 µM"}
{"note": "For quick reference, copied from above:"}
{"SMILES": "O=S(=O)(O)c1c2ccccc2c(-c2c3nc(c(-c4c5ccccc5c(S(=O)(=O)O)c5ccccc45)c4ccc([nH]4)c(-c4c5ccccc5c(S(=O)(=O)O)c5ccccc45)c4nc(c(-c5c6ccccc6c(S(=O)(=O)O)c6ccccc56)c5ccc2[nH]5)C=C4)C=C3)c2ccccc12", "organism": "vaccinia virus", "test": "viral replication", "system": "WR", "conditions": "25 µg/mL, 16 h", "quantity": "inhibition", "result": "39 ± 13%"}
{"SMILES": "CN[C@@H]1[C@H](O)[C@H](NC)[C@H]2O[C@]3(O)[C@H](O[C@@H]2[C@H]1O)O[C@H](C)C[C@H]3NC(=O)Cc1ccc(F)cn1", "organism": "Bacillus anthracis", "test": "microbial growth", "system": "STERNE34F2", "quantity": "MIC", "result": "25 µg/mL"}
